Results gathered from unrelated publications.
Parts stem from different laboratories: compare values within a part only.
UniProt Q2M2I8, sequence (whole entry, looked up): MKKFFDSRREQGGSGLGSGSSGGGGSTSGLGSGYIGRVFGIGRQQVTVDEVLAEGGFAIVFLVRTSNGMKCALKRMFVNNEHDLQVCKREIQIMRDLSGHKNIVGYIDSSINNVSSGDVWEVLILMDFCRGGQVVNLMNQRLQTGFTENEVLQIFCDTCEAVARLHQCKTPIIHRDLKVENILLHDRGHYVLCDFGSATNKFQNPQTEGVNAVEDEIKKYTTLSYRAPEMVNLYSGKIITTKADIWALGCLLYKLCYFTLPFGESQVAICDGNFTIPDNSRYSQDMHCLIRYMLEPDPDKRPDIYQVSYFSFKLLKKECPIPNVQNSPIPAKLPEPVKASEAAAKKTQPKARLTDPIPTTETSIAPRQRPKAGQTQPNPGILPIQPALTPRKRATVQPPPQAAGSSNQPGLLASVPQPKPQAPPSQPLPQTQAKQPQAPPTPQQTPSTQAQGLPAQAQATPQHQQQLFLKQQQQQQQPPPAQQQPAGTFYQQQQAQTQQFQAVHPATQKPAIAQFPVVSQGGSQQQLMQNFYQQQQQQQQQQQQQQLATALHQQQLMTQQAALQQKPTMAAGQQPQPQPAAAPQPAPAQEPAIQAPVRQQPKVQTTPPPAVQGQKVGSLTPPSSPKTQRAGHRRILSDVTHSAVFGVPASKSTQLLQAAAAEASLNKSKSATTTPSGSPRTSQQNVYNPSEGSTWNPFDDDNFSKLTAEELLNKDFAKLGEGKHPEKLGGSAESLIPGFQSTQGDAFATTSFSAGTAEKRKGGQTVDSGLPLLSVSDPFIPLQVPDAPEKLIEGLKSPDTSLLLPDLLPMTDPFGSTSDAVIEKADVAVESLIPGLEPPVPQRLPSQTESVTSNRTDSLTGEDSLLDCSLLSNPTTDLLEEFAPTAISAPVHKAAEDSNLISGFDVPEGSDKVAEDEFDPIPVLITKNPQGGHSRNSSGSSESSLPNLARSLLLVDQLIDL
UniProt P47898, sequence (whole entry, looked up): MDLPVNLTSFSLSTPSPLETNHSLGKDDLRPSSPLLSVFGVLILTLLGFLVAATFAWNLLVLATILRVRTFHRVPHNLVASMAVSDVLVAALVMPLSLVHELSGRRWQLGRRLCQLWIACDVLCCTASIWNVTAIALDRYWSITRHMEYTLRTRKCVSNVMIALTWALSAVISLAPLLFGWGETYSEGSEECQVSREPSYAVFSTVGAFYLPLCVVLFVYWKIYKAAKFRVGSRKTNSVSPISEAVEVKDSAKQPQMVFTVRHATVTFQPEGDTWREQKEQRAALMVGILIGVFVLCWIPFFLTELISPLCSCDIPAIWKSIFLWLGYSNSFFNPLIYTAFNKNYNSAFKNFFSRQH

Set 1
Target: Maternal embryonic leucine zipper kinase (MELK, Homo sapiens, UniProt Q14680)
UniProt Q14680, sequence (whole entry, looked up): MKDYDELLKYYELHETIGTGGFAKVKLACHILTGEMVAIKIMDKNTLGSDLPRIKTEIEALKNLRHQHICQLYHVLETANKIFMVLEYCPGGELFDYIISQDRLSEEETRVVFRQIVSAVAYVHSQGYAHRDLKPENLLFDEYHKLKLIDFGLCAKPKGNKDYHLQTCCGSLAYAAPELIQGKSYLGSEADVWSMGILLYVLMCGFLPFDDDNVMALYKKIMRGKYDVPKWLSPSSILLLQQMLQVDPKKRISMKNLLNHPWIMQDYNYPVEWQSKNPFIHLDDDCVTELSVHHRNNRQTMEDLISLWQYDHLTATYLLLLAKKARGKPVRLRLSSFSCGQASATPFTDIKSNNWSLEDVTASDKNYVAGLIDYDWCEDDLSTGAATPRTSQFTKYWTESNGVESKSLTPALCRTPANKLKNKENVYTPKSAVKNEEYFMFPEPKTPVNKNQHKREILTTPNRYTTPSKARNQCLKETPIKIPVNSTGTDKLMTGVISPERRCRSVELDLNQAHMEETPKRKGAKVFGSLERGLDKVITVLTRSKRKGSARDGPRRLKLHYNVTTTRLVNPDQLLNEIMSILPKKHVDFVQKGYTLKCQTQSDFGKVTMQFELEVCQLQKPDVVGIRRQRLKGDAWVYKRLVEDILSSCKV
Observed: enzyme activity
Action: inhibitor
Tested at: 0.5 µM
Baseline: control
Measurement: remaining activity
N#C/C(=C(/N)SC1C=CC=CC1)c1cccc(C(O)c2ccncc2)c1 (centres unmarked): 97%
O=C1NC(=O)/C(=C/c2ccc3c(c2)OC(F)(F)O3)S1: 94.4%
NC(=O)c1ccc(-c2nc(-c3ccc4c(c3)OCCO4)c(-c3ccccn3)[nH]2)cc1: 95%
CCCCc1c(-c2ccc(O)cc2)[nH]c2nccnc12: 82.5%
COc1cc2c(N3CCN(C(=O)Nc4ccc(OC(C)C)cc4)CC3)ncnc2cc1OCCCN1CCCCC1: 87.9%
O=C1c2ccccc2-c2nc3nnnn3nc21: 55.7%
CC(C)N(CCC(=O)c1ccc2ccccc2c1)Cc1ccccc1: 99.4%
O=C(O)/C=C/c1cc(Br)c(Br)c(Br)c1Br: 91%
c1cc(-c2cnn3cc(-c4ccc(OCCN5CCCCC5)cc4)cnc23)ccn1: 6.63%
O=C(c1ccccc1)c1ccc(N2CCOCC2)cc1O: 103%

Set 2
Organism: Sarcocystis neurona
Observed: parasite growth
Tested at: 10 µM
Time: 96 h
Baseline: untreated
Measurement: log2 fold change
COC(=O)Nc1nc2ccc(C(=O)c3ccccc3)cc2[nH]1: 0.72
CCCCNc1cc(C(=O)O)cc(S(N)(=O)=O)c1Oc1ccccc1: 0.32
Oc1ccc(C2CNCCc3c2cc(O)c(O)c3Cl)cc1 (centres unmarked): 0.28
COc1ccc2[nH]c([S+]([O-])Cc3ncc(C)c(OC)c3C)nc2c1 (centres unmarked): 0.28
C[C@@H]1C[C@H]2[C@@H]3C[C@H](F)C4=CC(=O)C(Cl)=C[C@]4(C)[C@@]3(F)[C@@H](O)C[C@]2(C)[C@@]1(O)C(=O)CO: -0.13
COc1cc(C(=O)NC2CCCNC2)cc(OC)c1OC (centres unmarked): 0.39
c1cnc(N2CCN(Cc3ccc4c(c3)OCO4)CC2)nc1: 0.42
CC(=O)O[C@@]12CO[C@@H]1C[C@H](O)[C@@]1(C)C(=O)[C@H](O)C3=C(C)[C@@H](OC(=O)[C@H](O)[C@@H](NC(=O)OC(C)(C)C)c4ccccc4)C[C@@](O)([C@@H](OC(=O)c4ccccc4)[C@H]21)C3(C)C: -1.07
Nc1cc(N2CCCCC2)nc(N)[n+]1[O-]: 0.35
CN(CCCN1c2ccccc2CCc2ccccc21)CC(=O)c1ccc(Cl)cc1: -0.0644
CC(=O)NC[C@H]1CN(c2ccc(N3CCOCC3)c(F)c2)C(=O)O1: -0.05
N#Cc1ccc(C(c2ccc(C#N)cc2)n2cncn2)cc1: 0.35
O=C1CCc2ccc(OCCCCN3CCN(c4cccc(Cl)c4Cl)CC3)cc2N1: -0.18

Set 3
Species: human
Matrix: microsomes or S9
Tested at: 2 µM
Time: 0.5 h
Measurement: remaining compound
O=C(O)c1cc2ccc3oc(-c4ccccc4)nc3c2n1Cc1cccc(Cl)c1: 58.3%
Cc1ccc(S(=O)(=O)Nc2ccc3nc(N4CCN(c5ccccc5)CC4)cc(C(=O)O)c3c2)cc1: 71.8%
Cc1ccccc1C1CC(=O)c2c(C)nc(N)nc2C1 (centres unmarked): 56.8%
CC1(c2ccccn2)CCN(C(=O)C(O)c2ccccc2)C1 (centres unmarked): 78.7%
COc1cc(=O)n(C)cc1C(=O)N1CCN(c2ccc(C(F)(F)F)cn2)CC1: > 99%
O=C1CC(c2cccc3[nH]ccc23)c2c(n[nH]c2-c2ccccc2)N1 (centres unmarked): 37.1%
Cn1c(=O)c2c(ncn2CC(O)C/N=C2\CCCCCN2)n(C)c1=O (centres unmarked): 94.4%
CC(C)(C)c1cn2c3ccccc3nc2n1CCNC1CCCCC1: 29.7%
CC(=O)Nc1cc2ccc(OC(C)=O)cc2oc1=O: 5.4%
CCOc1ccc(C(=O)C2=CN(c3ccc(C#N)cc3)c3ccccc3S2(=O)=O)cc1: 59%
Cc1ccc(C/N=C2\C(c3ccc(F)c(F)c3)=Nc3ncnn32)cc1: > 99.9%
Cl/C(=C/c1cccc2nccn12)c1nc2ccccc2s1: 0.779%
COc1cccc(-c2noc(Cn3cnc4c(nnn4-c4ccc(F)cc4)c3=O)n2)c1: 92.1%

Mixed results
C[C@@H]1CN(c2cc(-c3n[nH]c4ccc(OC5(C)CC5)cc34)ncn2)C[C@H](C)O1
inhibition (5-hydroxytryptamine receptor 5A (HTR5A, Homo sapiens, UniProt P47898); ligand displacement; 10 µM): -4.76%

COc1ccc2c(c1)O[C@H](c1ccc(OC)c(OC)c1)C[C@@H]2NC(=O)C1(c2ccc3c(c2)OC(F)(F)O3)CC1 (single isomer, unassigned)
remaining binding (AP2-associated protein kinase 1 (AAK1, Homo sapiens, UniProt Q2M2I8); KINOMEscan; 1 µM; baseline: control): 91%

For quick reference, copied from above (set 1):
CCCCc1c(-c2ccc(O)cc2)[nH]c2nccnc12: 82.5%
COc1cc2c(N3CCN(C(=O)Nc4ccc(OC(C)C)cc4)CC3)ncnc2cc1OCCCN1CCCCC1: 87.9%
